# Measurements from different studies.
# Organism: Bacillus subtilis
Structure (SMILES),assay,test system,conditions,MIC
CC[C@H](C)[C@H](NC(=O)[C@H](CCCN)NC(=O)[C@H](CC(N)=O)NC(=O)[C@H](Cc1c[nH]c2ccccc12)NC(=O)[C@H](Cc1ccccc1)NC(=O)[C@H](CCCN)NC(=O)[C@H](CCCCNC(=N)N)NC(=O)[C@H](CC(C)C)NC(=O)[C@H](Cc1c[nH]c2ccccc12)NC(=O)[C@H](CCCN)NC(=O)[C@H](CCCCNC(=N)N)NC(=O)[C@H](CC(C)C)NC(=O)CNC(C)=O)C(=O)N[C@@H](CCCN)C(=O)N[C@@H](CCCCNC(=N)N)C(N)=O,broth microdilution,ATCC 6633,,3.12 µM
CC[C@H](C)[C@@H]1NC(=O)CNC(=O)[C@H](CCCCN)NC(=O)[C@H](C)NC(=O)[C@H](CCC(=O)O)NC(=O)[C@H](Cc2ccccc2)NC(=O)[C@H](CO)NC(=O)[C@H](CC(C)C)NC(=O)[C@H](C(C)C)NC(=O)[C@H](CC(=O)O)NC(=O)[C@@H](NC(=O)[C@@H](NC(=O)[C@@H](N)C(C)C)[C@@H](C)O)CSSC[C@@H]2NC(=O)[C@H](CO)NC(=O)CNC(=O)CNC(=O)[C@H](CCCCN)NC(=O)[C@H](CCCCN)NC(=O)[C@H](CCCNC(=N)N)NC(=O)[C@H](CC(C)C)NC(=O)[C@H](C)NC(=O)[C@H]([C@@H](C)CC)NC(=O)[C@@H]3CSSC[C@@H](C(=O)N[C@@H](CCCNC(=N)N)C(=O)N[C@@H](CC(N)=O)C(=O)O)NC(=O)[C@H](C(C)C)NC(=O)[C@H](CSSC[C@H](NC(=O)[C@H](C)NC(=O)[C@H](CO)NC(=O)[C@H](Cc4c[nH]cn4)NC(=O)[C@H](CC(N)=O)NC(=O)[C@H](C(C)C)NC(=O)[C@H](C)NC1=O)C(=O)N[C@@H](C)C(=O)N[C@@H](CC(C)C)C(=O)N[C@@H](Cc1c[nH]cn1)C(=O)N3)NC(=O)[C@H](C(C)C)NC(=O)CNC(=O)[C@H](CC(N)=O)NC(=O)[C@H](CCC(N)=O)NC2=O,broth microdilution,KCTC 3068,"16 h, 37 °C",1.6 µM
O=C(c1ccccc1O)c1[nH]c(Cl)c(Cl)c1-n1c(C(=O)c2ccccc2O)cc(Cl)c1Cl,"microbial growth, broth dilution",168,20 h,0.125 µg/mL
CN[C@@H]1[C@H](O)[C@H](NC)[C@H]2O[C@]3(O)[C@H](O[C@@H]2[C@H]1O)O[C@H](C)C[C@@]3(O)CNCc1ccc(F)cc1,,ATCC 23857,,3.1 µg/mL
CC(C)C[C@@H]1NC(=O)[C@H](CC(C)C)NC(=O)[C@H](CC(C)C)NC(=O)[C@@H]2CSCC(=O)N[C@@H](CCCCN)C(=O)N[C@@H](CCCCN)C(=O)N[C@@H](CCCCN)C(=O)N[C@@H](CCCCNC(=O)[C@H](CCCCN)NC(=O)[C@H](CCCCN)NC(=O)[C@H](CCCCN)NC(=O)CSC[C@@H](C(=O)N[C@@H](CCCCN)C(N)=O)NC1=O)C(=O)N[C@@H](CCCCN)C(=O)N[C@@H](CC(C)C)C(=O)N[C@@H](CC(C)C)C(=O)N2,,BR 151,18 h,2 µg/mL
CN1C(=O)[C@@H]2NC(=O)[C@@H]3NC(=O)[C@@H](c4ccc(O)cc4)NC(=O)[C@H](NC(=O)C(NCc4ccsc4)c4ccc(O)cc4)Cc4c[nH]c5cc(ccc45)-c4cc3cc(c4O)Oc3ccc(cc3)C[C@H]1C(=O)N[C@@H](C(=O)O)c1ccc(O)c(c1)Oc1ccc2cc1 (some centres unmarked),,"168, Mueller-Hinton broth",,1 µg/mL
CC(C)C[C@H](NC(=O)[C@@H]1CSCC(=O)NCCCC[C@@H]2NC(=O)CSC[C@H](NC(=O)[C@H](CCCCN)NC2=O)C(=O)N[C@@H](CCCCN)C(=O)N[C@@H](CC(C)C)C(=O)N1)C(N)=O,,BR 151,18 h,128 µg/mL
CN1C(=O)[C@@H]2NC(=O)[C@@H]3NC(=O)[C@@H](c4ccc(O)cc4)NC(=O)[C@H](NC(=O)C(NCc4cccc(O)c4O)c4ccc(O)cc4)Cc4c[nH]c5cc(ccc45)-c4cc3cc(c4O)Oc3ccc(cc3)C[C@H]1C(=O)N[C@@H](C(=O)O)c1ccc(O)c(c1)Oc1ccc2cc1 (some centres unmarked),,"168, Mueller-Hinton broth",,4 µg/mL
CC(C)C[C@H](NC(=O)[C@H](CC(C)C)NC(=O)[C@H](CCCCN)NC(=O)[C@@H]1CCCN1C(=O)[C@H](CC(C)C)NC(=O)[C@H](CC(C)C)NC(=O)[C@H](CCCCN)NC(=O)[C@H](CC(C)C)NC(=O)[C@H](CC(C)C)NC(=O)[C@H](CO)NC(=O)CNC(=O)[C@H](Cc1ccccc1)NC(=O)[C@@H](N)Cc1ccccc1)C(N)=O,broth microdilution,,,3.12 µM
CCCCCCCCCC(=O)NCCCC[C@H](NC(=O)[C@H](CCCCN)NC(=O)[C@@H]1CSCC(=O)N[C@@H](CCCCN)C(=O)N[C@@H](CC(C)C)C(=O)N[C@@H](CCCCN)C(=O)NCCCC[C@@H]2NC(=O)[C@H](CCCCN)NC(=O)[C@H](CC(C)C)NC(=O)[C@H](CCCCN)NC(=O)CSC[C@H](NC(=O)[C@H](CC(C)C)NC(=O)[C@H](CC(C)C)NC(=O)[C@H](CCCCN)NC2=O)C(=O)N[C@@H](CC(C)C)C(=O)N[C@@H](CC(C)C)C(=O)N[C@@H](CC(C)C)C(=O)N1)C(N)=O,,BR 151,18 h,1 µg/mL
N=C(N)NCCC[C@@H]1NC(=O)[C@H](CCCNC(=N)N)NC(=O)[C@H](CCCNC(=N)N)NC(=O)[C@H](CCCNC(=N)N)NC(=O)[C@H](Cc2c[nH]c3ccccc23)NC(=O)[C@H](CCCNC(=N)N)NC(=O)[C@H](CCCNC(=N)N)NC(=O)[C@@H](N)CCCn2cc(nn2)C[C@@H](C(N)=O)NC1=O,,CMCC 63501,"24 h, 37 °C",31.2 µg/mL
CC(C)C[C@@H]1NC(=O)[C@H](CC(C)C)NC(=O)[C@H](CCCCN)NC(=O)CSC[C@@H](C(N)=O)NC(=O)[C@H](CC(C)C)NC(=O)[C@H](CCCCN)NC(=O)[C@H](CCCCN)NC(=O)[C@@H]2CSCC(=O)N[C@@H](CCCCN)C(=O)N[C@@H](CC(C)C)C(=O)N[C@@H](CC(C)C)C(=O)N[C@@H](CCCCNC1=O)C(=O)N[C@@H](CCCCN)C(=O)N[C@@H](CC(C)C)C(=O)N2,,BR 151,18 h,16 µg/mL
CC[C@H](C)[C@H](N)C1=N[C@H](C(=O)N[C@@H](Cc2ccccc2)C(=O)N[C@H](CCC(=O)O)C(=O)N[C@H](C(=O)N[C@H]2CCCCNC(=O)[C@H](CC(N)=O)NC(=O)[C@@H](CC(=O)O)NC(=O)[C@H](Cc3c[nH]cn3)NC(=O)[C@@H](Cc3ccccc3)NC(=O)[C@H]([C@@H](C)CC)NC(=O)[C@@H](CCCN)NC2=O)[C@@H](C)CC)CS1,,168,"18 h, 37 °C, with: ZnSO4 0.3 mM",32 µg/mL
CC[C@H](C)[C@H](NC(=O)[C@@H](Cc1ccccc1)NC)C(=O)N[C@@H](CO)C(=O)N[C@H](CCCNC(=N)N)C(=O)N[C@@H](C(=O)N[C@H](C(=O)OC[C@H](N)C(=O)N[C@H]1C(=O)N[C@@H](C)C(=O)N[C@@H](CC(C)C)C(=O)N[C@@H]([C@@H](C)CC)C(=O)O[C@H]1C)[C@@H](C)CC)[C@@H](C)CC,broth microdilution,"ATCC 6051, Mueller-Hinton broth","16 h, 37 °C",≤ 0.0078 µg/mL

# For quick reference, copied from above:
Structure (SMILES),assay,test system,conditions,MIC
CCCCCCCCCC(=O)NCCCC[C@H](NC(=O)[C@H](CCCCN)NC(=O)[C@@H]1CSCC(=O)N[C@@H](CCCCN)C(=O)N[C@@H](CC(C)C)C(=O)N[C@@H](CCCCN)C(=O)NCCCC[C@@H]2NC(=O)[C@H](CCCCN)NC(=O)[C@H](CC(C)C)NC(=O)[C@H](CCCCN)NC(=O)CSC[C@H](NC(=O)[C@H](CC(C)C)NC(=O)[C@H](CC(C)C)NC(=O)[C@H](CCCCN)NC2=O)C(=O)N[C@@H](CC(C)C)C(=O)N[C@@H](CC(C)C)C(=O)N[C@@H](CC(C)C)C(=O)N1)C(N)=O,,BR 151,18 h,1 µg/mL
N=C(N)NCCC[C@@H]1NC(=O)[C@H](CCCNC(=N)N)NC(=O)[C@H](CCCNC(=N)N)NC(=O)[C@H](CCCNC(=N)N)NC(=O)[C@H](Cc2c[nH]c3ccccc23)NC(=O)[C@H](CCCNC(=N)N)NC(=O)[C@H](CCCNC(=N)N)NC(=O)[C@@H](N)CCCn2cc(nn2)C[C@@H](C(N)=O)NC1=O,,CMCC 63501,"24 h, 37 °C",31.2 µg/mL
